Published values gathered from unrelated publications.
Compare with care: the assays were run in different laboratories. Values joined by “and” are separate records of one study, mostly repeats; a detail may differ. ≈ marks a conversion by molar mass, not a printed value.
Chain of UniProt P35372 (whole entry, looked up): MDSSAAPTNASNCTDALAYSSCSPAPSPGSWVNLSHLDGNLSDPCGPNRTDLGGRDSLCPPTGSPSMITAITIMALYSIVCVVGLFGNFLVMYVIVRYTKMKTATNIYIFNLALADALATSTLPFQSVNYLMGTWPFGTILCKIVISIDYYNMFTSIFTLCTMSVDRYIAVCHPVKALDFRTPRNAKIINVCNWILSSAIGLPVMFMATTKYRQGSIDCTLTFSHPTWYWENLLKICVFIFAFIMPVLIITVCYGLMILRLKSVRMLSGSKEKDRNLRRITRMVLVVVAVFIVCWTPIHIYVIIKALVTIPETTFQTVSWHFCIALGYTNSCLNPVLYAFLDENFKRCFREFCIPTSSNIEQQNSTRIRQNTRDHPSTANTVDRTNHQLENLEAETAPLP
Chain of UniProt P41143 (whole entry, looked up): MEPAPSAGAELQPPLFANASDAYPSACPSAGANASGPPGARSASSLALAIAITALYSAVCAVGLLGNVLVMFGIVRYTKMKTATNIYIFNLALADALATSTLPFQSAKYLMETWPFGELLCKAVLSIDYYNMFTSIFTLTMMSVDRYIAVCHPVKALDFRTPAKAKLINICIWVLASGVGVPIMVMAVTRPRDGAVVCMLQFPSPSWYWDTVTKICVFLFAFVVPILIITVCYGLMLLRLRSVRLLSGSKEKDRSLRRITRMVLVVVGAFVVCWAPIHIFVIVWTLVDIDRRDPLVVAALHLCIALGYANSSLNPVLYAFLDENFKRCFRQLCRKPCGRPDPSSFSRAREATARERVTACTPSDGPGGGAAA
Chain of UniProt Q96SW2 (whole entry, looked up): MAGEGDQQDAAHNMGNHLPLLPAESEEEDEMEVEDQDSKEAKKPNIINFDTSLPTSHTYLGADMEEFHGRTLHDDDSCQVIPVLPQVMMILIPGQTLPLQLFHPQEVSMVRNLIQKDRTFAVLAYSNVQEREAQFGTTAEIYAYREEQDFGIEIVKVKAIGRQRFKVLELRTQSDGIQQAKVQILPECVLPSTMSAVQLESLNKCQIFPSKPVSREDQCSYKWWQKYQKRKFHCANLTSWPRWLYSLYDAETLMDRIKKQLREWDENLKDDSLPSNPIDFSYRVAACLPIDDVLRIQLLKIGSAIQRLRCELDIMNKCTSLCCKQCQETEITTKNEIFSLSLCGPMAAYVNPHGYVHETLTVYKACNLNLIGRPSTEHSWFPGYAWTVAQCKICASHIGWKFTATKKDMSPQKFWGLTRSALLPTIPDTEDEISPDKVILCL
Chain of UniProt P08684 (whole entry, looked up): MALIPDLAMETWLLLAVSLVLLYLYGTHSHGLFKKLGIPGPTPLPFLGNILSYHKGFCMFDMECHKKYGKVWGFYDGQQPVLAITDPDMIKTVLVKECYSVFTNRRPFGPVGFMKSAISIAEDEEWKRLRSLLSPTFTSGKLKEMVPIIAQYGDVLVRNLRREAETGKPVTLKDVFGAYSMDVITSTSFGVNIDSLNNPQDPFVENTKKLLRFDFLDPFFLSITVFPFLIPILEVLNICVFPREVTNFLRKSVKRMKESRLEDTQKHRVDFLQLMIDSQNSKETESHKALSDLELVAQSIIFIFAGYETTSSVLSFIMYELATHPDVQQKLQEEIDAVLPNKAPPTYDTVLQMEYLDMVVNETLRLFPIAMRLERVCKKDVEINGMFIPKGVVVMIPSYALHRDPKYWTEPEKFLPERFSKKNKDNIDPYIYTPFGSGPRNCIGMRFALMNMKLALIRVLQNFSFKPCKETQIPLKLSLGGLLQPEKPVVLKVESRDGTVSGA
Chain of UniProt Q9UKS7 (whole entry, looked up): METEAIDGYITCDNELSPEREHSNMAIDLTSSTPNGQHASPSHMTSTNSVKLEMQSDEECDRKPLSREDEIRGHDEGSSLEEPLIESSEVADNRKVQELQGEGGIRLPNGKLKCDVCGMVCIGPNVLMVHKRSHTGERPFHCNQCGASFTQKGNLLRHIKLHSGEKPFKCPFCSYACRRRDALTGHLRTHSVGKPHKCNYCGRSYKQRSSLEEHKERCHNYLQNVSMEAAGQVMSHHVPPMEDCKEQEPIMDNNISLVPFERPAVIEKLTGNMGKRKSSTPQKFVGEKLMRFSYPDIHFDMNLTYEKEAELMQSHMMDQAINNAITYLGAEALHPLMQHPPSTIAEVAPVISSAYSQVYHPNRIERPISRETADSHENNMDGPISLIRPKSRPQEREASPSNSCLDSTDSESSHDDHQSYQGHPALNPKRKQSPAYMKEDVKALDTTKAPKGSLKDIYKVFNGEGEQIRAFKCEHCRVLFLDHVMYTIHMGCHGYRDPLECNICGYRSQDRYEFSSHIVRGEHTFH

C#CCN1C(=O)C(O)(C(=O)O)Oc2cc(F)ccc21 (stereo not shown) — fresh weight (Arabidopsis thaliana; 2-week-old plants, aboveground tissue; foliar spray, 200 µg/mL, 20 days, postemergence): 360 mg and 364 mg and 376 mg
N=C(N)NCCCCCCN1CCC23c4c5ccc(O)c4OC2c2nc4ccccc4cc2CC3(O)C1C5 (stereo not shown) — specific binding (OPRM1 (Homo sapiens, UniProt P35372); competitor, radioligand binding; 10 nM): 88.8% and 106% and 133%
CCCCC[C@@H](O)CC(=O)N[C@@H]1C(=O)N[C@H](CCCNC(=N)N)C(=O)N[C@@H](CO)C(=O)NCC(=O)N(C)[C@H](Cc2ccccc2)C(=O)N[C@@H](CC(C)C)C(=O)N[C@H](CCCNC(=N)N)C(=O)N[C@@H](CCC(=O)O)C(=O)N[C@H](CCC(N)=O)C(=O)N[C@H](Cc2c[nH]c3ccccc23)C(=O)N[C@@H]([C@@H](C)CC)C(=O)N[C@@H]([C@@H](C)O)C(=O)O[C@@H]1C — MIC (Escherichia coli; microbial growth; BAS849; 16 h): 8 µg/mL (≈ 4.9 µM)
C=CCN1C(=O)C(O)(C(=O)O)Oc2cc(F)ccc21 (stereo not shown) — hypocotyl length (Arabidopsis thaliana; Col-0; 25 µg/mL, seed germination, single repetition): 1.78 cm and 1.67 cm and 1.71 cm and 1.69 cm and 1.65 cm
CCCCC[C@@H]1CC(=O)N[C@@H](C(C)C)C(=O)N[C@H](CCCNC(=N)N)C(=O)N[C@@H](C(C)C)C(=O)NCC(=O)N2CCC[C@H]2C(=O)N[C@@H](CC(C)C)C(=O)N[C@H](CCCNC(=N)N)C(=O)N[C@@H](CCC(=O)O)C(=O)N[C@H](Cc2ccc(O)cc2)C(=O)N[C@H](Cc2c[nH]c3ccccc23)C(=O)NCCCC(=O)O1 — MIC (Staphylococcus aureus; USA300; together with: menaquinone 0.0625 µg/mL): 1 µg/mL (≈ 0.674 µM)
O=C1CCC(N2Cc3c(ccc4c3OCC43CCN(Cc4ccccc4)CC3O)C2=O)C(=O)N1 (stereo not shown) — protein remaining (CRBN/Zinc finger protein Helios (Homo sapiens, UniProt Q96SW2+Q9UKS7); degrader, HiBiT; HEK293; 370.37 nM): 83.7%
CCCCC[C@@H]1CC(=O)N[C@@H](C(C)C)C(=O)N[C@H](CCCNC(=N)N)C(=O)N[C@@H](CO)C(=O)NCC(=O)N(C)[C@H](Cc2ccccc2)C(=O)N[C@@H](CC(C)C)C(=O)N[C@H](CCCNC(=N)N)C(=O)N[C@@H](CC(N)=O)C(=O)N[C@H](C(C)C)C(=O)N[C@H](Cc2c[nH]c3ccccc23)C(=O)NCCCC(=O)O1 — MIC (Staphylococcus aureus; USA300; together with: ubiquinone 0 µg/mL): 4 µg/mL (≈ 2.75 µM)
Cn1cc(-c2cccc(CN3CCC4(CC3)COc3c4ccc4c3CN([C@H]3CCC(=O)NC3=O)C4=O)c2)cn1 — IC50 (Cytochrome P450 3A4 (CYP3A4, Homo sapiens, UniProt P08684); enzyme activity, inhibitor; midazolam probe): > 10 µM
CCCCC[C@@H](O)CC(=O)N[C@@H]1C(=O)N[C@H](CCCNC(=N)N)C(=O)N[C@@H](CO)C(=O)NCC(=O)N(C)[C@H](Cc2ccccc2)C(=O)N[C@@H](CC(C)C)C(=O)N[C@H](CCCNC(=N)N)C(=O)N[C@@H](CO)C(=O)N[C@H]([C@H](C)O)C(=O)N[C@H](Cc2c[nH]c3ccccc23)C(=O)N[C@@H]([C@@H](C)CC)C(=O)NCC(=O)O[C@@H]1C — MIC (Escherichia coli; microbial growth; 16 h): > 64 µg/mL
NC(=O)NCCCCCCN1CCC23c4c5ccc(O)c4OC2c2nc4ccccc4cc2CC3(O)C1C5 (stereo not shown) — EC50 (Delta-type opioid receptor, with β-arrestin2 (OPRD1, Homo sapiens, UniProt P41143); agonist): 1230 nM

For quick reference, copied from above:
CCCCC[C@@H](O)CC(=O)N[C@@H]1C(=O)N[C@H](CCCNC(=N)N)C(=O)N[C@@H](CO)C(=O)NCC(=O)N(C)[C@H](Cc2ccccc2)C(=O)N[C@@H](CC(C)C)C(=O)N[C@H](CCCNC(=N)N)C(=O)N[C@@H](CO)C(=O)N[C@H]([C@H](C)O)C(=O)N[C@H](Cc2c[nH]c3ccccc23)C(=O)N[C@@H]([C@@H](C)CC)C(=O)NCC(=O)O[C@@H]1C — MIC (Escherichia coli; microbial growth; 16 h): > 64 µg/mL
